Measurements collected from several papers.
Numbers after ± are the reported error.
B1: TOC33 truncated, lacking membrane anchor (Arabidopsis thaliana); chain MGSLVREWVGFQQFPAATQEKLIEFFGKLKQKDMNSMTVLVLGKGGVGKSSTVNSLIGEQVVRVSPFQAEGLRPVMVSRTMGGFTINIIDTPGLVEAGYVNHQALELIKGFLVNRTIDVLLYVDRLDVYRVDELDKQVVIAITQTFGKEIWCKTLLVLTHAQFSPPDELSYETFSSKRSDSLLKTIRAGSKMRKQEFEDSAIAVVYAENSGRCSKNDKDEKALPNGEAWIPNLVKAITDVATNQRKAIHVD
B2: spnA dimerization element 1877-1944 (Saccharopolyspora spinosa, UniProt Q9ALM6); sequence looked up; chain ALRESSAGDMGRRVEAKFWGAVEHEDVESLARVLGIVDDGAAVDSLRSALPVLAGWQRTRTTESIMDQ
B3: CEACAM5 35-144 (Homo sapiens, UniProt P06731-1); sequence looked up; chain KLTIESTPFNVAEGKEVLLLVHNLPQHLFGYSWYKGERVDGNRQIIGYVIGTQQATPGPAYSGREIIYPNASLLIQNIIQNDTGFYTLHVIKSDLVNEEATGQFRVYPEL
B4: emrE (Escherichia coli, UniProt P23895); sequence looked up; chain MNPYIYLGGAILAEVIGTTLMKFSEGFTRLWPSVGTIICYCASFWLLAQTLAYIPTGIAYAIWSGVGIVLISLLSWGFFGQRLDLPAIIGMMLICAGVLIINLLSRSTPH
B5: S100A5 (Homo sapiens, UniProt P33763); sequence looked up; chain METPLEKALTTMVTTFHKYSGREGSKLTLSRKELKELIKKELCLGEMKESSIDDLMKSLDKNSDQEIDFKEYSVFLTMLCMAYNDFFLEDNK
B6: clcA C85A/H234C (Escherichia coli, UniProt P37019); chain MKTDTPSLETPQAARLRRRQLIRQLLERDKTPLAILFMAAVVGTLVGLAAVAFDKGVAWLQNQRMGALVHTADNYPLLLTVAFLASAVLAMFGYFLVRKYAPEAGGSGIPEIEGALEDQRPVRWWRVLPVKFFGGLGTLGGGMVLGREGPTVQIGGNIGRMVLDIFRLKGDEARHTLLATGAAAGLAAAFNAPLAGILFIIEEMRPQFRYTLISIKAVFIGVIMSTIMYRIFNCEVALIDVGKLSDAPLNTLWLYLILGIIFGIFGPIFNKWVLGMQDLLHRVHGGNITKWVLMGGAIGGLCGLLGFVAPATSGGGFNLIPIATAGNFSMGMLVFIFVARVITTLLCFSSGAPGGIFAPMLALGTVLGTAFGMVAVELFPQYHLEAGTFAIAGMGALLAASIRAPLTGIILVLEMTDNYQLILPMIITGLGATLLAQFTGGKPLYSAILARTLAKQEAEQLARSKAASASENT
B7: ADRB1 W183A (Homo sapiens, UniProt P08588); sequence looked up; chain MGAGVLVLGASEPGNLSSAAPLPDGAATAARLLVPASPPASLLPPASESPEPLSQQWTAGMGLLMALIVLLIVAGNVLVIVAIAKTPRLQTLTNLFIMSLASADLVMGLLVVPFGATIVVWGRWEYGSFFCELWTSVDVLCVTASIETLCVIALDRYLAITSPFRYQSLLTRARARGLVCTVAAISALVSFLPILMHWWRAESDEARRCYNDPKCCDFVTNRAYAIASSVVSFYVPLCIMAFVYLRVFREAQKQVKKIDSCERRFLGGPARPPSPSPSPVPAPAPPPGPPRPAAAAATAPLANGRAGKRRPSRLVALREQKALKTLGIIMGVFTLCWLPFFLANVVKAFHRELVPDRLFVFFNWLGYANSAFNPIIYCRSPDFRKAFQGLLCCARRAARRRHATHGDRPRASGCLARPGPPPSPGAASDDDDDDVVGATPPARLLEPWAGCNGGAAADSDSSLDEPCRPGFASESKV
B8: S100P (Homo sapiens, UniProt P25815); sequence looked up; chain MTELETAMGMIIDVFSRYSGSEGSTQTLTKGELKVLMEKELPGFLQSGKDKDAVDKLLKDLDANGDAQVDFSEFIVFVAAITSACHKYFEKAGLK
B9: unc-83 1-305 (Caenorhabditis elegans, UniProt Q23064); sequence looked up; chain MDVMDSFSEVEMPNDISSEDHLLKVIESSAEEVDIFLENCSSLYNLILDSLHNLTSKTISCECLDEMTSTLEKSAKKILAERPEAENSVLLRLNTICCAMDQLRVQHNSRMMSGADSDTASSARSSTSSSTGEMRLWLHEVERRLEINEKRIRVEPNLQLLLSDQQALQLEIQHEGQLLVNRLNKQIKDDHDSDSSEEEKRKTCVDAIRKRWHTIYLNSLSLVCRIEELINHQQASEDSESDPDLVGPPIKRARIRTVGHLTASDTEESEADEEDRHSQTETVVTEDDNVLPFAENEYESIMDGR
B10: OGT monomeric W198E/I201D (UniProt O15294-3); sequence looked up; chain MASSVGNVADSTGLAELAHREYQAGDFEAAERHCMQLWRQEPDNTGVLLLLSSIHFQCRRLDRSAHFSTLAIKQNPLLAEAYSNLGNVYKERGQLQEAIEHYRHALRLKPDFIDGYINLAAALVAAGDMEGAVQAYVSALQYNPDLYCVRSDLGNLLKALGRLEEAKACYLKAIETQPNFAVAWSNLGCVFNAQGEIELADHHFEKAVTLDPNFLDAYINLGNVLKEARIFDRAVAAYLRALSLSPNHAVVHGNLACVYYEQGLIDLAIDTYRRAIELQPHFPDAYCNLANALKEKGSVAEAEDCYNTALRLCPTHADSLNNLANIKREQGNIEEAVRLYRKALEVFPEFAAAHSNLASVLQQQGKLQEALMHYKEAIRISPTFADAYSNMGNTLKEMQDVQGALQCYTRAIQINPAFADAHSNLASIHKDSGNIPEAIASYRTALKLKPDFPDAYCNLAHCLQIVCDWTDYDERMKKLVSIVADQLEKNRLPSVHPHHSMLYPLSHGFRKAIAERHGNLCLDKINVLHKPPYEHPKDLKLSDGRLRVGYVSSDFGNHPTSHLMQSIPGMHNPDKFEVFCYALSPDDGTNFRVKVMAEANHFIDLSQIPCNGKAADRIHQDGIHILVNMNGYTKGARNELFALRPAPIQAMWLGYPGTSGALFMDYIITDQETSPAEVAEQYSEKLAYMPHTFFIGDHANMFPHLKKKAVIDFKSNGHIYDNRIVLNGIDLKAFLDSLPDVKIVKMKCPDGGDNADSSNTALNMPVIPMNTIAEAVIEMINRGQIQITINGFSISNGLATTQINNKAATGEEVPRTIIVTTRSQYGLPEDAIVYCNFNQLYKIDPSTLQMWANILKRVPNSVLWLLRFPAVGEPNIQQYAQNMGLPQNRIIFSPVAPKEEHVRRGQLADVCLDTPLCNGHTTGMDVLWAGTPMVTMPGETLASRVAASQLTCLGCLELIAKNRQEYEDIAVKLGTDLEYLKKVRGKVWKQRISSPLFNTKQYTMELERLYLQMWEHYAAGNKPDHMIKPVEVTESA
B11: Ikbkg 1-355 C54S/K285N (Mus musculus, UniProt O88522); sequence looked up; chain MNKHPWKNQLSEMVQPSGGPAEDQDMLGEESSLGKPAMLHLPSEQGTPETLQRSLEENQELRDAIRQSNQMLRERCEELLHFQVSQREEKEFLMCKFQEARKLVERLSLEKLDLRSQREQALKELEQLKKCQQQMAEDKASVKAQVTSLLGELQESQSRLEAATKDRQALEGRIRAVSEQVRQLESEREVLQQQHSVQVDQLRMQNQSVEAALRMERQAASEEKRKLAQLQAAYHQLFQDYDSHIKSSKGMQLEDLRQQLQQAEEALVAKQELIDKLKEEAEQHNIVMETVPVLKAQADIYKADFQAERHAREKLVEKKEYLQEQLEQLQREFNKLKVGCHESARIEDMRKRHVE
B12: Pah F80D (Rattus norvegicus, UniProt P04176); sequence looked up; chain MAAVVLENGVLSRKLSDFGQETSYIEDNSNQNGAISLIFSLKEEVGALAKVLRLFEENDINLTHIESRPSRLNKDEYEFDTYLDKRTKPVLGSIIKSLRNDIGATVHELSRDKEKNTVPWFPRTIQELDRFANQILSYGAELDADHPGFKDPVYRARRKQFADIAYNYRHGQPIPRVEYTEEEKQTWGTVFRTLKALYKTHACYEHNHIFPLLEKYCGFREDNIPQLEDVSQFLQTCTGFRLRPVAGLLSSRDFLGGLAFRVFHCTQYIRHGSKPMYTPEPDICHELLGHVPLFSDRSFAQFSQEIGLASLGAPDEYIEKLATIYWFTVEFGLCKEGDSIKAYGAGLLSSFGELQYCLSDKPKLLPLELEKTACQEYSVTEFQPLYYVAESFSDAKEKVRTFAATIPRPFSVRYDPYTQRVEVLDNTQQLKILADSINSEVGILCNALQKIKS
B13: Ph-p 1288-1577 (Drosophila melanogaster, UniProt P39769); chain SISNGSKDLPKAMIKPNVLTHVIDGFIIQEANEPFPVTRQRYADKDVSDEPPKKKATMQEDIKLSGIASAPGSDMVACEQCGKMEHKAKLKRKRYCSPGCSRQAKNGIGGVGSGETNGLGTGGIVGVDAMALVDRLDEAMAEEKMQTEATPKLSESFPILGASTEVPPMSLPVQAAISAPSPLAMPLGSPLSVALPTLAPLSVVTSGAAPKSSEVNGTDRPPISSWSVDDVSNFIRELPGCQDYVDDFIQQEIDGQALLLLKEKHLVNAMGMKLGPALKIVAKVESIKEV
B14: S100A8 (Homo sapiens, UniProt P05109); sequence looked up; chain MLTELEKALNSIIDVYHKYSLIKGNFHAVYRDDLKKLLETECPQYIRKKGADVWFKELDINTDGAVNFQEFLILVIKMGVAAHKKSHEESHKE
B15: ASPSCR1 (Homo sapiens, UniProt Q9BZE9); Alexa Fluor 488 label; chain MAAPAGGGGSAVSVLAPNGRRHTVKVTPSTVLLQVLEDTCRRQDFNPCEYDLKFQRSVLDLSLQWRFANLPNNAKLEMVPASRSREGPENMVRIALQLDDGSRLQDSFCSGQTLWELLSHFPQIRECLQHPGGATPVCVYTRDEVTGEAALRGTTLQSLGLTGGSATIRFVMKCYDPVGKTPGSLGSSASAGQAAASAPLPLESGELSRGDLSRPEDADTSGPCCEHTQEKQSTRAPAAAPFVPFSGGGQRLGGPPGPTRPLTSSSAKLPKSLSSPGGPSKPKKSKSGQDPQQEQEQERERDPQQEQERERPVDREPVDREPVVCHPDLEERLQAWPAELPDEFFELTVDDVRRRLAQLKSERKRLEEAPLVTKAFREAQIKEKLERYPKVALRVLFPDRYVLQGFFRPSETVGDLRDFVRSHLGNPELSFYLFITPPKTVLDDHTQTLFQANLFPAALVHLGAEEPAGVYLEPGLLEHAISPSAADVLVARYMSRAAGSPSPLPAPDPAPKSEPAAEEGALVPPEPIPGTAQPVKRSLGKVPKWLKLPASKR
Sequence of UniProt P13393 (whole entry, looked up): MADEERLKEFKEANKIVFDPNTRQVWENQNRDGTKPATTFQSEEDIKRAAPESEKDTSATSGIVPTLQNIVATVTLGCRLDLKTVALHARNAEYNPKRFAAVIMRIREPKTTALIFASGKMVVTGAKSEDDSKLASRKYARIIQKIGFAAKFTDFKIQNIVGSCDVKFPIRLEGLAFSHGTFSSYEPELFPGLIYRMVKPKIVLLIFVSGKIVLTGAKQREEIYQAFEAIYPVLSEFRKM
Sequence of UniProt P34540 (whole entry, looked up): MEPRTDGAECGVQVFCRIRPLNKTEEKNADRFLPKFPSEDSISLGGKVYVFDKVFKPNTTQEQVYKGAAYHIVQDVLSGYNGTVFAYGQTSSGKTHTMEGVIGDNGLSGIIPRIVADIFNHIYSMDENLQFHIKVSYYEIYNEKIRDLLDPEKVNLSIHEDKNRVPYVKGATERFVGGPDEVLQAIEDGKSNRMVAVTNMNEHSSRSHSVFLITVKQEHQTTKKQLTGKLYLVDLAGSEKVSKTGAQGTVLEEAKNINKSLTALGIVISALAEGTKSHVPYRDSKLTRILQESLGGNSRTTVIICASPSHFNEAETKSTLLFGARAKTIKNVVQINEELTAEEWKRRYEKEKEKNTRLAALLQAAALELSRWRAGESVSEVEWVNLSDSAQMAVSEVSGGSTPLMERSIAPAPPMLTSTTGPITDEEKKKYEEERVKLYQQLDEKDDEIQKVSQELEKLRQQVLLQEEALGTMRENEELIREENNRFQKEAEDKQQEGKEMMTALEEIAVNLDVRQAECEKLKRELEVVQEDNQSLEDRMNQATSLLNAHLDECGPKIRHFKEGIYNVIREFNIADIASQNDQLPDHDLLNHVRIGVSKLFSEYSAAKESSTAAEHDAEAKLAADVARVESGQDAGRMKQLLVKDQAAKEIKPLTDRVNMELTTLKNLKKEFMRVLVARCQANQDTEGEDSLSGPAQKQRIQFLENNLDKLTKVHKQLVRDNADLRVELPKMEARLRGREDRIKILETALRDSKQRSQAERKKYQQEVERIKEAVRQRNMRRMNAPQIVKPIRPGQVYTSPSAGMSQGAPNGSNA

With `KNRKAKAKPVTRGAGAGGRQRGQNKERPPPVPNPDYEPIRKGQRDLYSGLNQRRI (CD3E cytoplasmic domain (Homo sapiens, UniProt P07766))` the Kd was 8300 µM (itself; AUC equilibrium sedimentation).
`B1` has a koff of 0.0032 s⁻¹ (itself; fluorescence kinetics; 22 °C, together with: mantGDP).
With `B2` the Kd was 19.9 µM (itself; AUC).
`B3 (CEACAM5 35-144)` — result for “subunits per oligomer”: 2 (itself; SEC).
`B4 (emrE)` gave a Kd of 4 ± 2 µM (itself; AUC).
`B5 (S100A5)` gave a Kd of 75 ± 15 µM (itself; AUC; without Ca2+ unclear, together with: Ca2+).
Under “exchange subunit half-time”, `B6 (clcA C85A/H234C)` is recorded as 8.9 ± 1.8 days (itself; FRET; subunit exchange).
With `B7 (ADRB1 W183A)` the BRET50 was 4.1 GFP/Rluc ratio (itself; BRET; W183A mutant; higher = weaker self-association).
For `unc-116 (Caenorhabditis elegans, UniProt P34540)`, the dimer particles was 82 % peak (itself; mass photometry).
`RQIVDAQAVCTRCKESADFWCFECEQLLCAKCFEAHQWFLKHEARPLAE (PML 120-168 (Homo sapiens, UniProt P29590-1); sequence looked up)` gave a Kd of 115 ± 5 µM (itself; AUC).
For `CCAACCGGACTTTGGGGCTAGCGTTTAGAAAAGTCTCAAGTCAATCGGTCC (dsDNA; 5'-amino-C6 primer)`, the Kd was 0.0388 ± 0.00566 µM (SPT15 full length assumed (Saccharomyces cerevisiae, UniProt P13393); array; double-stranded DNA, one strand shown; TBP alone).
The Kd of `B8 (S100P)` is reported as 160 ± 30 µM (itself; AUC).
`B9 (unc-83 1-305)` gave a dimer particles of 100 % peak (itself; mass photometry).
`B10 (OGT monomeric W198E/I201D)` gave a Kd of over 1 µM (itself; TR-FRET; together with: CoraFluor-labelled OGT 1 nM).
The Kd of `B11 (Ikbkg 1-355 C54S/K285N)` is reported as 25.6 µM (itself; AUC).
`B12 (Pah F80D)`: “subunits per oligomer” 4 (itself; SEC).
For `B13 (Ph-p 1288-1577)`, “subunits per oligomer” read 5 (itself; SEC-MALS; self-association).
With `B14 (S100A8)` the Kd was 8 ± 2 µM (itself; AUC; together with: calcium).
`B15 (ASPSCR1)` — result for “subunits per oligomer”: 2 (itself; AUC).

Some of these lines once more:
Under “exchange subunit half-time”, `B6 (clcA C85A/H234C)` is recorded as 8.9 ± 1.8 days (itself; FRET; subunit exchange).
